Assay results gathered from unrelated publications.
Several values in a cell are separate wells, animals, samples, runs or records.
IRAK4: Interleukin-1 receptor-associated kinase 4 (IRAK4, Homo sapiens, UniProt Q9NWZ3)
UniProt Q9NWZ3, sequence (whole entry, looked up): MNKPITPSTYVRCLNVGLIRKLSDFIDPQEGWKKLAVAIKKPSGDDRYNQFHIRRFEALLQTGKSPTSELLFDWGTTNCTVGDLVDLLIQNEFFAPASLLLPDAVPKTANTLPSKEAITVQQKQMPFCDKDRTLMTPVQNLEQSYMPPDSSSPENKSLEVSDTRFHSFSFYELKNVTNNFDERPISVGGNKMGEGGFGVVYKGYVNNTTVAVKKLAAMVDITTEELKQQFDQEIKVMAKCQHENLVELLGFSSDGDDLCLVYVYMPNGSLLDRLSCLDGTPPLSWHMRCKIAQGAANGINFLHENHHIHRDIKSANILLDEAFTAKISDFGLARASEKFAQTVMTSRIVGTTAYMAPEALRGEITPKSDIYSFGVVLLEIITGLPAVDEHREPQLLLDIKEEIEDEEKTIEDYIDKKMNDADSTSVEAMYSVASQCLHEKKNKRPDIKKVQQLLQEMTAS
UniProt Q9HB29, sequence (whole entry, looked up): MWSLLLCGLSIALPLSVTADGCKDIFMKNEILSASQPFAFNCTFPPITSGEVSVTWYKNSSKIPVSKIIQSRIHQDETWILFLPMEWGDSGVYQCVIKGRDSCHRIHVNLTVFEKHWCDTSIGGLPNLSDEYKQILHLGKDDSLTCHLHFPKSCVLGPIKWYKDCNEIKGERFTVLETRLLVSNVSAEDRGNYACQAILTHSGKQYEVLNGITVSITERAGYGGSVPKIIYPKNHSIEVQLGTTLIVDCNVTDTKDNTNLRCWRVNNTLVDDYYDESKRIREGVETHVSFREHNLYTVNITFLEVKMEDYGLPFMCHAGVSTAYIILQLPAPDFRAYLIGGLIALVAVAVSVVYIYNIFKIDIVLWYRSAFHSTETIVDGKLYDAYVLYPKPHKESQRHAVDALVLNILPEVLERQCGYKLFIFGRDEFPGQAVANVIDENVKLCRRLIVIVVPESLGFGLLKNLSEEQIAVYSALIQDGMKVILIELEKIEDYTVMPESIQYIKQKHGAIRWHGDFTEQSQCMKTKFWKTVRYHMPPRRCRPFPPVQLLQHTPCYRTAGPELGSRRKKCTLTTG

SMILES	target or system	assay	test system	setting	scale	measurement	value
CC(C)[C@@H]1NC(=O)[C@H](Cc2ccccc2)NC(=O)CSC[C@@H](C(N)=O)NC(=O)[C@H](CCC(=O)O)NC(=O)[C@H](CO)NC(=O)[C@H](Cc2c[nH]c3cccc(Cl)c23)NC(=O)[C@H](C2CCCCC2)NC(=O)[C@H](C(C)C)NC(=O)[C@H](Cc2ccc(O)cc2)NC(=O)[C@H](CC(=O)O)NC(=O)[C@H](Cc2c[nH]c3ccccc23)NC(=O)[C@H](Cc2ccc(N)nc2)NC(=O)[C@H](Cc2c[nH]c3ccc(Cl)cc23)NC(=O)[C@H](CCC(=O)O)NC1=O	Interleukin-1 receptor-like 2 (IL1RL2, Homo sapiens, UniProt Q9HB29)	reporter gene (SEAP), inhibitor, HEK-Blue IL-36R reporter	HEK-Blue IL-36R cells	33.33 µM, 6 h, added: IL-36β 10 ng/mL		remaining activity	80.5%
COc1ccc(NC(=O)Nc2ccc3c(c2)C(=O)N(C(C)CO)CC(C)C(CN(C)Cc2ccc4c(c2)OCO4)O3)cc1 (centres unmarked)	IRAK4	kinase activity, KinaseProfiler		0.03 µM, species human	relative to: control	remaining activity	106%
CCn1nc(C)c(CN2CCCC(C(=O)c3cccc(OC(C)C)c3)C2)c1C (centres unmarked)	Trypanosoma cruzi	reporter mRNA translation, inhibitor, item: capped polyadenylated Renilla luciferase mRNA	cell-free extract	concentration not given	relative to: control RNA	relative translation	112%
CN1CCN(Cc2ccc(-c3ccc(CO[C@H]4CCC[C@@H]4NC(=O)c4cc(-c5cnn(C)c5)cnc4N)cc3)cc2)CC1	IRAK4	enzyme activity, inhibitor		0.1 µM		inhibition	-9%
CC(NS(=O)(=O)c1ccc(CCC(=O)N2CCN(C)CC2)cc1)c1ccccc1 (centres unmarked)	Trypanosoma cruzi	reporter mRNA translation, inhibitor, item: capped polyadenylated Renilla luciferase mRNA	cell-free extract	concentration not given	relative to: control RNA	relative translation	122%
Nc1ncc2c(n1)-c1c([nH]c3ccc(C4=CCOCC4)cc13)CCC2	IRAK4	binding, competition with immobilised ligand		1 µM		remaining binding	100%
Cc1cnc2nc1Nc1cccc(c1)COC/C=C/COCc1cc(ccc1OCCN1CCOCC1)N2	IRAK4	cell-free assay		0.1 µM		remaining signal	81%
O=C=[N][Ru-4]123([n]4c5ccc(O)cc5c5c6c(c7cc(F)c[n+]1c7c54)C(=O)NC6=O)[S+]1CC[S+]2CC[S+]3CC1 (centres unmarked)	IRAK4	enzyme activity		100 nM, human enzyme, added: 10 µM ATP	relative to: untreated	remaining activity	108%
C=CC(=O)Nc1cccc(-c2cnc3[nH]cc(C(=O)NC(C)(C)C)c3n2)c1	IRAK4	kinase activity		0.1 µM		inhibition	-7% and 1%
Cc1[nH]nc2c1N=C(c1ccccc1Cl)c1cnc(N3CCOCC3)cc1N2	IRAK4	enzyme activity, inhibitor		0.5 µM		inhibition	49.3%
CC(C)=CC1OC(C)(C)C2C=C3C(=O)C(Cl)=CC(O)C3C3C(O)C4OC4C(=O)C132 (centres unmarked)	IRAK4	cell-free assay, competition with immobilised ligand		10 µM		remaining binding	83%
c1ccc2c(Nc3cc(C4CCC4)[nH]n3)nc(Nc3ccc4nc[nH]c4c3)nc2c1	IRAK4	enzyme activity, inhibitor		0.25 µM		remaining activity	5%
COc1cc(Nc2nccc(-c3cnn4nc(OC)ccc34)n2)cc(C(F)(F)F)c1	IRAK4	binding, competition with immobilised ligand		1 µM		remaining binding	97%
Fc1cncc(-c2ccc3[nH]c4ncnc(N[C@H]5CC[C@H](N6CCOCC6)CC5)c4c3c2)c1	IRAK4	enzyme activity, AlphaScreen		1 µM, added: ATP 25 µM		inhibition	100%
O=C(Cc1ccc(OCc2ccccc2)cc1)NC1(C(=O)O)CCN(C(=O)c2ccc(-c3cccc(Cl)c3)cc2)CC1	IRAK4	enzyme activity, inhibitor		10 µM		activity vs control	152%
NC(=O)C[C@H]1CCc2sc3ncnc(O[C@H]4CC[C@H](N5CCOCC5)CC4)c3c21	IRAK4	enzyme activity, inhibitor		10 µM		inhibition	99%
C=CC(=O)N1CCCC(n2c(=O)c3ncccc3n(Cc3ccc(Oc4ccccc4)cc3)c2=O)C1 (centres unmarked)	IRAK4	cell-free assay, competition with immobilised ligand		1 µM		remaining binding	75%
Cn1cc(-c2ccc3[nH]c4nccc(N[C@H]5CC[C@H](N6CCOCC6)CC5)c4c3c2)cn1	IRAK4	enzyme activity, AlphaScreen		1 µM, added: ATP 25 µM		inhibition	100%
Cc1cccc(O[C@H]2CCC[C@@H](C(C)CNCc3ccncc3)C2)c1 (relative stereo)	IRAK4	kinase activity, kinome panel screening		1 µM		inhibition	-3%
COCC12C(=O)NC3C4(C(OC)CC1O)C1CC5(O)C(OC)C(O)C(OC(C)=O)(C1C5OC(=O)c1ccccc1)C3(O)C(OC)C24 (centres unmarked)	IRAK4	kinase activity, inhibitor, ProQinase kinase profiling		25 µM	relative to: control	remaining activity	97% and 104%
N[C@H]1CC[C@H](Nc2nccc(-c3cccnc3Oc3ccc(NC(=O)NC4CC4)c4ccccc34)n2)CC1	IRAK4	kinobead competition pulldown	HEK293/HCT116 lysate mixture	10 µM, 1 h, 4 °C	lower = stronger competition	log2 LFQ intensity	26.1 and 26
COc1ccc(O)cc1-c1c[nH]c2ncc(-c3cncc(C(=O)N(C)C)c3)cc12	IRAK4	binding, competition with immobilised ligand		0.2 µM		inhibition	-10%
CNC(=O)C1CCN(c2cc(C)c(F)cc2NC(=O)c2ccc(-c3cc(O)ccc3C)c(C)c2)CC1	IRAK4	binding, competition with immobilised ligand		1 µM		remaining binding	79%

For quick reference, copied from above:
SMILES	target or system	assay	test system	setting	scale	measurement	value
C=CC(=O)N1CCCC(n2c(=O)c3ncccc3n(Cc3ccc(Oc4ccccc4)cc3)c2=O)C1 (centres unmarked)	IRAK4	cell-free assay, competition with immobilised ligand		1 µM		remaining binding	75%
Cn1cc(-c2ccc3[nH]c4nccc(N[C@H]5CC[C@H](N6CCOCC6)CC5)c4c3c2)cn1	IRAK4	enzyme activity, AlphaScreen		1 µM, added: ATP 25 µM		inhibition	100%
